Results from different studies.
A part holds a random share of what one study measured.

Set 1 — technique: aptamer microarray, sandwich; form: DNA with 2'F-ANA; matrix: in vitro; concentration: 200 nM; with: Cy3 exosite-II aptamer, 400 nM; reading: higher = stronger binding; oligonucleotide: GGTTGGTGTGGTTGG
Target: Prothrombin, mature alpha-thrombin (F2, Homo sapiens, UniProt P00734)
Setting: whole 15-mer aptamer, many near background
Modification | mean fluorescence intensity [a.u.]
2'F-ANA at 2 3 4 5 8 9 11 13 | 68.2
2'F-ANA at 1 4 8 13 14 | 53.6
2'F-ANA at 2 3 5 8 9 11 12 13 14 15 | 58.9
2'F-ANA at 4 5 6 9 10 11 15 | 48.9
2'F-ANA at 2 3 4 6 9 11 12 | 645
2'F-ANA at 1 3 5 6 7 8 10 13 | 51.9
2'F-ANA at 1 2 3 5 6 7 8 9 10 11 15 | 72.3
2'F-ANA at 5 6 10 15 | 54.4
2'F-ANA at 2 7 8 12 14 | 276
2'F-ANA at 1 4 5 6 8 10 12 14 | 52
2'F-ANA at 1 2 5 6 14 | 45.3
2'F-ANA at 2 6 7 8 9 10 11 13 14 15 | 82.6
2'F-ANA at 2 3 5 8 9 11 13 14 | 56.2
2'F-ANA at 1 5 10 14 | 43.8
2'F-ANA at 1 4 6 9 11 | 80.2
2'F-ANA at 6 7 8 14 15 | 209
2'F-ANA at 1 2 4 7 8 9 10 11 12 14 15 | 47.6
2'F-ANA at 2 5 8 9 11 | 66.8
2'F-ANA at 3 6 12 13 14 | 577
2'F-ANA at 1 2 3 5 6 7 9 10 11 12 13 | 73.4

Set 2 — technique: RNA Bind-n-Seq; form: RNA; matrix: in vitro; concentration: 365 nM; baseline: no-protein control; reading: higher = stronger binding
Target: RNA binding protein fox-1 homolog 2, RRM domain, GST-SBP tag (RBFOX2, Homo sapiens, UniProt O43251-10, residues 100-194)
Setting: natural RNA segment, single round, ends assumed
All sequences stand within: GGGAGUUCUACAGUCCGACGAUC … UGGAAUUCUCGGGUGCCAA
Construct (chain): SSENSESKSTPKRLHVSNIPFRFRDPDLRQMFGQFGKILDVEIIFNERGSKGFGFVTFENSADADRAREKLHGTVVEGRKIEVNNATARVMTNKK
Oligonucleotide | RBNS enrichment (R)
GUUUUACAGACUAUGAAGCUGAGGGGGGAUGGUAGGCACAGAUGUGUGGCAACCCUGCUCUGUGCUCUGAAACCAAAGUGUGUCCUGUCUUGUCUGUCUCUCACCCUGCC | 0.674
AAUUGUAUGCUUUCAGUAUUGUGUUAUAUGUUUCUAUGGCAACUUUGAAGUCAGUGGUUUAGAAAUGAGAUACCAAUGUUAAUGAAAAGUAUGUACUCUUUGCUUUUGCA | 4.26
GGGUGGGGGUCAUUCAGCUCGAAUGGGUCCCAGAUGCUCACUUGGCCUUUCCCUGCAGGAUGAGUGAAGACGUUUGCCUCUCACAGUGUGUCUUCUACCUGCAUUUUGGC | 0.316
UUUUACUGAGAAAGGAAGGGCCAAGGGAUGAGGUGGGAACCGGGCCCUGGGGGCGCCACAGACUAAGGCAGAGACUCCCCUACCUGGCGCCCAGCCCCAACCAGCUGGCC | 0.465
AGCAUGCCUUACCCAGCUGGGAAGUCUCUGCCCUGAUCUGGUACUCCUUGUAGUAAGCUGUUUUCUGCUCAGCCACUGGGCUCUUUCACUUUUUUAGUUCUUAAAAAUUU | 0.699
AUUUCCAGUUCUAUAAUGUUUCAUGUUGAGCCAAAAGAGUAUAUCUUGCACUUUAAAAACGCUGCGUCCUAUUCCAUUUGAAUGUAAAUUCUUAAAAGUUGAGACCAAUU | 0.513
CUCCUGCCCAUGAGGAUCACAUCCUGUCUCUCCUUGCUUCCAUCUCUCAUCACUGCCCUUGGACUUCCGCCUUGACUGUCCAUGAAAGACAGAAAUGGGUUGGGUAGUUG | 0.42
UUCCCUCGCUAUAUAUCUAUCUUUAUCCAGCCCGAGUAUUUCCAACGUCAUUUUGCAAAUUAGAACAGGACAAAUUUUAUGUUUCCGGGGCACAUAUGUUGUAUUGCAAA | 1.4
AGAGAGGGAGAGAAGGCCCUUGCCACGUCCGGGGUGCAGGGUCUACCCACAGAACACUGUGAGUGGUGAGCACCAAGAUGGGUUGCCAGCCUCAUUUGCUCUUUGAACGA | 0.297
AUCGCUCUUUUCCACUCCAAGAUGCCCUCAUAAACCAAUGUGGCAAGACUACUGGACUUCUAUCAAUGGUACUCUAAUCAGUCCUUAUUAUCCCAGCUUGCUGAGGGGCA | 0.386
GUCUGUCUUUGUCCAGGUUUCAGACAUUUCUAGGUUGGGGAAGAUGCUAUUGGGAAACCUCUUCUCCGUGACACAGAAUGUUCUGGGUGGGAGCCGCCCUUCUUCAUCUU | 0.327
AUAUCAUUGAUGUAAAACCCUUGGACUUAGGGGGCAUGAGGAUUUAAUAUGCCUGCGGGGUAACGAUGUUACCACAGCAAUGGCAGCUUCAACUUACUUGUUCUAAGCAC | 0.277

Set 3 — technique: RNA Bind-n-Seq; form: RNA; matrix: in vitro; concentration: not given; setting: RNA with constant flanks, ends assumed; baseline: input RNA pool; reading: higher = stronger binding
Target: RING finger protein unkempt homolog, zinc fingers 1-6, GST-SBP tag (UNK, Homo sapiens, UniProt Q9C0B0, residues 30-357)
All sequences stand within: GGGAGUUCUACAGUCCGACGAUC … CAACAGAGGAUUGAGCAUCA
Construct (chain): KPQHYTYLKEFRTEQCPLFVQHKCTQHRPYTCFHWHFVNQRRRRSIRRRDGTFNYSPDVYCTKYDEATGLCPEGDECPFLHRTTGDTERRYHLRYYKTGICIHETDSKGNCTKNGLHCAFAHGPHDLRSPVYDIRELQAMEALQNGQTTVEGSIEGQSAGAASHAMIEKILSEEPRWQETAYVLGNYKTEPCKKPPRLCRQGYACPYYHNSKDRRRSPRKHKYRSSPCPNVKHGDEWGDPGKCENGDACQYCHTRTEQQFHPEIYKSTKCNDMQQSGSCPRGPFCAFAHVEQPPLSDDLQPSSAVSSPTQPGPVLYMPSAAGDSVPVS
Oligonucleotide | bound/input enrichment
GGCUCAUUUGUAAAAUUGUCCUAAUUUUUCCUAGCUUUCAGCCAUUAGAAACUCUUUUAACCGUUCCUUUUGAGUUGUGAGCUCUUCUUCUGUAGCCCUGAAGGGACACUGUAUUCUGUA | 1.94 ratio
AGUUAUGACGGUAUAAAGCUUGAGCCUGAAAAUCCCCCACCAUAUGAAGAAGCCAUGAGUGCCGCACUAAAAACAUCGGACUCAAAGGAAGAAAUUAAAGAGCCUGAAAGUUUUAAUGCA | 0.327 ratio
CAGAACUGUGGUCCAAGUUUCCAGUCUCUGAUUGUGAAGAAGGAAUUUGUUAAAGAGAAUUCCGUUAAGCUACUGAAUCCCAGAUACAACUUGCCAUUAGACAUUCAGAAUAGAAUCUUG | 0.835 ratio
AAGUGGUUGCGGGAAAUAUUGAUCUGCAGGAAUAAAUUUCUUCUUAAAAAUAAGCAGGCAGACCGAAGUUCCUGUCACUUUCUCCUUUUUUACGGGGUAGGAUGUGAUAUUCCUUCUAGU | 0.225 ratio
AAGCAUGAGUAUCAAGCAAAUGGGCCAGAAGACCUCAAUCGGACCUGUAUUGCUGAAAAGCCCGGUGGCUCCUUAAUUGUAGCCUUUGAAGGAUCCCCUGUGUAGACCGCCAGUCAGUGC | 0.136 ratio
CUGUCACACUCCAAGGGCCACCAGAAGCGCAAGGCCCUCAAGACGACAGUCAUCCUCAUCCCCGCUUUCUUUGCCUGCUGGCUGCCAUAUUAUGUGGGGAUCAGCAUCGACUCCUUCAUC | 0.0682 ratio
CAGUGGCGUUUGGAGGAGACUCGAAACUGGAUGGCUUCUACAGGGAGCCAGGCCUCUGAUACCGACGAGAUUUUUGGAUUCUUCAACGAUGGCGAACCUCCCACCAAAAAGCCCAGGAAG | 0.14 ratio
UUUGCAGAAUGGAGGCAGCUCUGGUUGACCGGUUCCUUGGUUGAGCUCUGACUCAAGACCCCGGUCCCAAGAGCAGGCCUUCCUCACCUAAGAGAGCAACACCUAUGGGUGACCCAUUCU | 0.061 ratio
CUUGUGCAUGCCCCACCUAUGCAACUGGGAUUCCCAUCCCUGCACUCGUUCAUCAAGGAACACCGUCUUCAGGUAUCCCCCAGCUUAGAGAAAGGGGCUAAGGCAGACACAGGCCUUGAU | 0.237 ratio
CUGGGACCUGAAGGACUGGAUCUGAUUGAGAAGCUGCUCCAGAACAGAAUUACAAUUGCCGAUCGGUUCCUUAAUUCCUCGAGCGAUCAUAAGUUUCAAGUUCUCCAAGAUAGUUGUAAA | 0.521 ratio
AUGGCAUAAAAUGUACCUUUGUUCUUAUUGUAUAAUAUUGAGGCUAUUACUAAUUAUUCAUACCGGUCCCAGCAACAGAUAGAAAUGCUUUAAGUUCGCUCUGGGGAAAACUGGCCUCUG | 0.634 ratio

Set 4 — technique: competition protein-binding microarray; form: double-stranded DNA, one strand shown; matrix: in vitro; concentration: 2 µM; with: Cbf1 competitor, 0.05 µM; reading: higher = stronger binding; all sequences stand within: … GTCTTGATTCGCTTGACGCTGCTG
Target: Phosphate system positive regulatory protein PHO4, full length, GST-tagged (PHO4, Saccharomyces cerevisiae, UniProt P07270, residues 1-312)
Setting: whole 60-bp probe, lowest competitor level
Target sequence (chain): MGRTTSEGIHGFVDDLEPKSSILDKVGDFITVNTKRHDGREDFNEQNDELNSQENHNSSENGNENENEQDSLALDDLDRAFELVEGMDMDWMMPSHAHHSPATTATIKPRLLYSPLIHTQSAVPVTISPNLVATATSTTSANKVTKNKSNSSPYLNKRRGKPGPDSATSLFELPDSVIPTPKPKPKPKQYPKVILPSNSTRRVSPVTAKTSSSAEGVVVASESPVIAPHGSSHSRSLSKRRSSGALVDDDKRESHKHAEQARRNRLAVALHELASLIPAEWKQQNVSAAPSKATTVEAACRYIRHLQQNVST
Oligonucleotide | fluorescence intensity [a.u.]
CGTCCTAGTGATTGCCAGGTGGGTGCCATGAGGAAG | 6880
TGCGCAACAACTTTTCACGTGACTTTATGTCTAGAA | 10500
GTCTTGTCTCATTGCGCAGTGGGTGTCCCCACTTCA | 4170
GCGGTCCCTGTCCTGCACACTGCACTCAACACCATA | 6230
GGTGGAAAGTGAGTGCGCGTTTCTCGAGCCAAGTGC | 6130
TTCCATCTTCTAAAGACCGTGTCTGCGCTTCCAGAT | 7920
AGACGTTGAGAAGTCCTCGTGAATAATCTGAATGAC | 6830
TTAACCCACAAACGTCAGGTGTACAATCGCAAATCC | 4020
CACTGAGTACTTCCTCACCTGATCCAATCGATTTAA | 3190
AAATTACTAAGTTGCTCGGTGGGTGACGCCGTATGA | 3100
GTCTTGTCTCATTGATACGTGGGTGTCCCCACTTCA | 6190
CTTAAAAGTCTGGAAGGCGTGCTAATTGTCCTTTTA | 9880
TTTCTGAAAAAAATGCGCGTGAAAAGGAATCATTTG | 5460

Set 5 — technique: protein-binding microarray; form: double-stranded DNA, one strand shown; matrix: in vitro; concentration: not given; reading: higher = stronger binding
Target: Max dimerization protein 1, bHLH-zipper, MAX partner unstated (MXD1, Homo sapiens, UniProt Q05195, residues 56-136)
Setting: k-mer, scored over probes, only values ≥0.25
Residues (chain): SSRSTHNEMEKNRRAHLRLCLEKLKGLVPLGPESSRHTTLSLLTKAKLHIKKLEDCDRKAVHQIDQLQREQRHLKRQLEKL
Oligonucleotide | E-score
CATGCATG | 0.407
ACGTGGTA | 0.419
CGTGCTCC | 0.31
CCATGTGA | 0.409
CGTGTCTC | 0.317
ACATGCCT | 0.346
AACGTGGA | 0.353
CACGCTGA | 0.37
ACCCACCC | 0.367
ACTCGTGC | 0.404
CACGTGTC | 0.479
CCCCGTCC | 0.293
GGGCACAC | 0.261
GGAGGGGA | 0.295
GCACGCGC | 0.384
CTCCATGC | 0.391

Excerpt of the above (set 5):
Oligonucleotide | E-score
CACGCTGA | 0.37
AACGTGGA | 0.353
CCCCGTCC | 0.293
ACCCACCC | 0.367
CCATGTGA | 0.409
ACTCGTGC | 0.404
GGGCACAC | 0.261
CACGTGTC | 0.479
GGAGGGGA | 0.295
